Experimental data pooled from the literature.
± gives the spread as reported.
Histone acetyltransferase RTT109 with Vps75: Histone acetyltransferase RTT109, with Vps75 (Saccharomyces cerevisiae, UniProt Q07794)
UniProt Q07794, sequence (whole entry, looked up): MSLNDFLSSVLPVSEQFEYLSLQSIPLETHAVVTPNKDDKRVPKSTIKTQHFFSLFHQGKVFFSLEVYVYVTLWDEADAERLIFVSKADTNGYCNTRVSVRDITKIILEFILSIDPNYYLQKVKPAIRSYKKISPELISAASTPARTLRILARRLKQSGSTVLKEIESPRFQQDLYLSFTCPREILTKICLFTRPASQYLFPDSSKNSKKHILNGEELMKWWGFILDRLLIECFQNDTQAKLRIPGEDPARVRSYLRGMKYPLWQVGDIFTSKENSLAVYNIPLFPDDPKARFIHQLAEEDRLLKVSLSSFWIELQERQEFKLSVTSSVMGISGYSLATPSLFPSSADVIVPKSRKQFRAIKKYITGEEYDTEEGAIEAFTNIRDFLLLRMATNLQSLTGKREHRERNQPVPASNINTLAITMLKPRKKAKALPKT
UCHL1: Ubiquitin carboxyl-terminal hydrolase isozyme L1 (UCHL1, Homo sapiens, UniProt P09936)
UniProt P09936, sequence (whole entry, looked up): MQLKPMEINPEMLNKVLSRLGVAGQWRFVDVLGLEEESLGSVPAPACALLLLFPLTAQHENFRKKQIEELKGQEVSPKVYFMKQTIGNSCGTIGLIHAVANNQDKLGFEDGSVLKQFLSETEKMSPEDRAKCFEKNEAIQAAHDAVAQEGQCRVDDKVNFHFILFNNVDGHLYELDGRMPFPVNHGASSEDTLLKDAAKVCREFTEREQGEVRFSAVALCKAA
UniProt P61823, sequence (whole entry, looked up): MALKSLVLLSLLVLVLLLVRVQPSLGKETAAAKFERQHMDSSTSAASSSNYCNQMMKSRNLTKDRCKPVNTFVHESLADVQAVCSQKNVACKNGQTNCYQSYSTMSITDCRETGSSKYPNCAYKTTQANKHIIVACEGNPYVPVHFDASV
UniProt P42680, sequence (whole entry, looked up): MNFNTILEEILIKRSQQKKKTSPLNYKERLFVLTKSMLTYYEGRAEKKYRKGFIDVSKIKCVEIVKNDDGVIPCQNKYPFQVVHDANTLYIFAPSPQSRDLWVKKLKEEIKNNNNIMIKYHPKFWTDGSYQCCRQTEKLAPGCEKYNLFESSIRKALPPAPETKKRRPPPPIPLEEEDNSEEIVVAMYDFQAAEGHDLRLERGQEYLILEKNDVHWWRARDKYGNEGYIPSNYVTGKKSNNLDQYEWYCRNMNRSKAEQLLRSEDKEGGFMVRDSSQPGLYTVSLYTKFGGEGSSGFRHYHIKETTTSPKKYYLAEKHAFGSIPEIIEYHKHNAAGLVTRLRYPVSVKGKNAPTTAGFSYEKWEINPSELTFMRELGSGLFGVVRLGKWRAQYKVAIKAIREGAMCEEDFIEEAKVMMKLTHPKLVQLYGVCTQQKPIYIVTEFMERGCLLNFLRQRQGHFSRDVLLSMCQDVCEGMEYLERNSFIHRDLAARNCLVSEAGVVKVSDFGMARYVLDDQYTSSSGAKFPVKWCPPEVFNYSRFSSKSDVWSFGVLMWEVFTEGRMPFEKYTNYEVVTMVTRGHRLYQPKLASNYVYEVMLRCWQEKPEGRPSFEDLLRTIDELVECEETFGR
UniProt Q8BHY3, sequence (whole entry, unmodified, looked up): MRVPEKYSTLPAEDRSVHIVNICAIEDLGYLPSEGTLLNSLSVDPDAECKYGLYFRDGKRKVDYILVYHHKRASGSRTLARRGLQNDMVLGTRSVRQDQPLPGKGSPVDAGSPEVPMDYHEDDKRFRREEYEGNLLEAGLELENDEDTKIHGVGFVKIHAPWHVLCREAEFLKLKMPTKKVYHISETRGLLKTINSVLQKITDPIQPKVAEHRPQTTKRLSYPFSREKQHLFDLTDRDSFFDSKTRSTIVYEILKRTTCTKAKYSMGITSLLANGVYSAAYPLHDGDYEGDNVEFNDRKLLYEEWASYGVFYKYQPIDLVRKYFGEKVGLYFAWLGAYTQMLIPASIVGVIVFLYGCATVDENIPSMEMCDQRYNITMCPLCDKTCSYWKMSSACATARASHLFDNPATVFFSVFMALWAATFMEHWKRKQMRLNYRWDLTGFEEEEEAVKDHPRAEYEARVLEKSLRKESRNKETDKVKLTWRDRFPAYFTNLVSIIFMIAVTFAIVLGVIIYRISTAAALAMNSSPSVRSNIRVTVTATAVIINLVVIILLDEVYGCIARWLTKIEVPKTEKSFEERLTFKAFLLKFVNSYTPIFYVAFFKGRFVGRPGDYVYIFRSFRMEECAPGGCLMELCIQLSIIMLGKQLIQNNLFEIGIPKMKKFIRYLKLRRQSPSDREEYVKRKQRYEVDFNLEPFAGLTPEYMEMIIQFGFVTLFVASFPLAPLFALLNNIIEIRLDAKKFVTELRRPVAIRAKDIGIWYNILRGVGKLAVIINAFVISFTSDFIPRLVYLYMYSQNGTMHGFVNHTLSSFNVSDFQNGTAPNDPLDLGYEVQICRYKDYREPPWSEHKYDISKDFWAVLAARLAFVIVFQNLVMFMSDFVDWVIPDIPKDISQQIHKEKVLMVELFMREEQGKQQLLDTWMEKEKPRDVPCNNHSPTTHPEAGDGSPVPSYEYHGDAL
UniProt P51575, sequence (whole entry, unmodified, looked up): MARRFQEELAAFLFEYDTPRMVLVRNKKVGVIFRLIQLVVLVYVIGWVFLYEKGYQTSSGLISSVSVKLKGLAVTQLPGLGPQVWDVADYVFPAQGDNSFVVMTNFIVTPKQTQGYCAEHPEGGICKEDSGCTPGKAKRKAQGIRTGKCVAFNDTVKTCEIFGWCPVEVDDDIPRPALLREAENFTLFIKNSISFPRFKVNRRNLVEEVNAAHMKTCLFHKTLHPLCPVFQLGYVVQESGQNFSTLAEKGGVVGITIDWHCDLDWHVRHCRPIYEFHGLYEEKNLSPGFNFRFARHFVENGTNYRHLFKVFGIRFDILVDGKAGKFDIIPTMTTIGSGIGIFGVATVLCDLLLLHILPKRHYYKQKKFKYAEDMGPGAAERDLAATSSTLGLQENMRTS

O=C(CSC1CC(=O)N(c2ccc(Br)cc2)C1=O)Nc1ccc(Cl)cc1 (stereo not shown) — IC50 (Histone acetyltransferase RTT109 with Vps75; enzyme activity, inhibitor, HTS, CPM-based, dose response): > 125 µM
c1coc(-c2n[nH]cc2-c2ccnc3ccccc23)c1 — log2 fold change (FUN31 (Candida albicans); kinase binding, MIB/MS competition; Candida albicans lysate; 10 µM; reference: DMSO): 0.2
O=S(=O)(Nc1ccc(O)c(Br)c1)c1ccc(F)cc1 — IC50 (Histone acetyltransferase RTT109 with Vps75; enzyme activity, inhibitor, HTS, CPM-based, dose response): > 125 µM
CS(=O)(=O)N1CCc2cc(C(=O)CCl)ccc21 — labelling (UCHL1; covalent, intact protein LC-MS; 12.5 µM): 54.9%
CC[C@H](C)[C@H](NC(=O)[C@H](Cc1ccc(OP(=O)(O)O)cc1)NC(=O)[C@H](CC(N)=O)NC(=O)[C@H](CC(C)C)NC(=O)[C@@H](N)CO)C(=O)N[C@@H](CC(=O)O)C(=O)N[C@@H](CC(C)C)C(=O)N[C@@H](CC(=O)O)C(=O)N[C@@H](CC(C)C)C(=O)N[C@H](C(=O)N[C@@H](CCCCN)C(=O)O)C(C)C — EC50 (PTPN11 (Homo sapiens, UniProt Q06124, E249R/S502P); enzyme activity, activator; pH 7.0, 2% DMSO, together with: DiFMUP 100 µM, phosphopeptide): 2 ± 0.5 µM
O=C(Nc1ccc([N+](=O)[O-])cc1Cl)c1cc(Cl)ccc1O — EC50 (Anoctamin-1 (Ano1, Mus musculus, UniProt Q8BHY3, F781A); chloride current, whole-cell patch clamp; HEK-293T TMEM16F knockout): 3.07 ± 0.75 µM
O=[N+]([O-])c1c(Sc2ccc(Cl)cc2)ccc2nsnc12 — IC50 (Histone acetyltransferase RTT109 with Vps75; enzyme activity, inhibitor, HTS, CPM-based, dose response): > 125 µM
Nc1ccn([C@@H]2O[C@H](COP(=O)(O)OP(=O)(O)O)[C@@H](O)[C@H]2O)c(=O)n1 — Kd (RNASE1 (Bos taurus, UniProt P61823); binding, native mass spectrometry; surface-deposited protein; 10-fold diluted): 3.7 ± 0.2 µM
Nc1ncnc2c1ncn2[C@@H]1O[C@H](COP(=O)(O)OP(=O)(O)OP(=O)(O)O)[C@@H](O)[C@H]1O — EC50 (P2X purinoceptor 1 (P2RX1, Homo sapiens, UniProt P51575, K136E/K138D/K140L); ion current, agonist, two-electrode voltage clamp; 3): 3.49 µM
COc1cc(Nc2ncc3c(n2)-c2ccc(Cl)cc2C(c2c(F)cccc2OC)=NC3)ccc1C(=O)NCCOCCOCCNC(=O)COc1cccc2c1C(=O)N(C1CCC(=O)NC1=O)C2=O (stereo not shown) — EC50 (TEC (Homo sapiens, UniProt P42680); binding, kinobead competition; MV4-11 cell lysate): > 30 µM
CC(=O)OC[C@H]1O[C@@H]([S-])[C@H](OC(C)=O)[C@@H](OC(C)=O)[C@@H]1OC(C)=O.CCP(CC)CC.[Au+] — EC50 (Toxoplasma gondii; tachyzoite growth, luciferase; ME49-Fluc, type II): 1.12 µM
CC#CC(=O)N1CCC(CNC(=O)c2cccc(C(F)(F)F)c2)CC1 — labelling (UCHL1; covalent, intact protein LC-MS; 12.5 µM): 15.9%
Cn1cc(-c2ccc(-c3cncc(Cl)c3N3CCC4(CCNC4=O)CC3)cc2)cn1 — log2 fold change (COLO 205; gene expression, microarray, item: DUSP6 mRNA; concentration not given, 6 h; reference: untreated cells): 1.38

Some of these lines once more:
c1coc(-c2n[nH]cc2-c2ccnc3ccccc23)c1 — log2 fold change (FUN31 (Candida albicans); kinase binding, MIB/MS competition; Candida albicans lysate; 10 µM; reference: DMSO): 0.2
CC(=O)OC[C@H]1O[C@@H]([S-])[C@H](OC(C)=O)[C@@H](OC(C)=O)[C@@H]1OC(C)=O.CCP(CC)CC.[Au+] — EC50 (Toxoplasma gondii; tachyzoite growth, luciferase; ME49-Fluc, type II): 1.12 µM
